Measurements pooled from the literature.
Each line is one published result; not all experiments were run side by side. Numbers after ± are the reported error.
coaD: Phosphopantetheine adenylyltransferase (coaD, Mycobacterium tuberculosis, UniProt P9WPA5)
Sequence of UniProt P9WPA5 (whole entry, looked up): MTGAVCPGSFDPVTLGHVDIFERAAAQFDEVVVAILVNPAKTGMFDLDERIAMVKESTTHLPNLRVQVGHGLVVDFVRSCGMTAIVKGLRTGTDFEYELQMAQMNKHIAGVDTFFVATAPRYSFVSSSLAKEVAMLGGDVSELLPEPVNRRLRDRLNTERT
4'-phosphopantetheinyl transferase PptT: 4'-phosphopantetheinyl transferase PptT (Mycobacterium tuberculosis, UniProt O33336)
Sequence of UniProt O33336 (whole entry, looked up): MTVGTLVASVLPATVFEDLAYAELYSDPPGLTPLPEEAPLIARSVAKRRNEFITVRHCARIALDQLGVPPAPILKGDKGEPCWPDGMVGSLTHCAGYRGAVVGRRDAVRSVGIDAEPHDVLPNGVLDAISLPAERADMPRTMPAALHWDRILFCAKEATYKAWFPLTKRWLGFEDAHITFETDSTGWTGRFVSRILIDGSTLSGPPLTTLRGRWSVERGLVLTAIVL
Matrix protein 2: Matrix protein 2 (Influenza A virus, UniProt P0DOF5)
Sequence of UniProt P0DOF5 (whole entry, looked up): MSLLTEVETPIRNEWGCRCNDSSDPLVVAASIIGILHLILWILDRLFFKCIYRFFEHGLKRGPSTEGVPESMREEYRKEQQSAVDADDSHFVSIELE
Sequence of UniProt P34972 (whole entry, unmodified, looked up): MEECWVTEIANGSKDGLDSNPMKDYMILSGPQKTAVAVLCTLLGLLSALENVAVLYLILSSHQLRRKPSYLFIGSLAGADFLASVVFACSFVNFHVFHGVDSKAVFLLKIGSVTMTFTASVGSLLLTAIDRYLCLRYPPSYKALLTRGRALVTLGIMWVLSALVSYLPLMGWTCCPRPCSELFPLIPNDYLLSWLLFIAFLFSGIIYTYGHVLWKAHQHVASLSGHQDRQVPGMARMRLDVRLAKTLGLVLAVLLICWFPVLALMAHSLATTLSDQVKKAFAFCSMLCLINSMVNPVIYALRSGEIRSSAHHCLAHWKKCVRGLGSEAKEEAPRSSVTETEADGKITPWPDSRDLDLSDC
Sequence of UniProt P21554 (whole entry, unmodified, looked up): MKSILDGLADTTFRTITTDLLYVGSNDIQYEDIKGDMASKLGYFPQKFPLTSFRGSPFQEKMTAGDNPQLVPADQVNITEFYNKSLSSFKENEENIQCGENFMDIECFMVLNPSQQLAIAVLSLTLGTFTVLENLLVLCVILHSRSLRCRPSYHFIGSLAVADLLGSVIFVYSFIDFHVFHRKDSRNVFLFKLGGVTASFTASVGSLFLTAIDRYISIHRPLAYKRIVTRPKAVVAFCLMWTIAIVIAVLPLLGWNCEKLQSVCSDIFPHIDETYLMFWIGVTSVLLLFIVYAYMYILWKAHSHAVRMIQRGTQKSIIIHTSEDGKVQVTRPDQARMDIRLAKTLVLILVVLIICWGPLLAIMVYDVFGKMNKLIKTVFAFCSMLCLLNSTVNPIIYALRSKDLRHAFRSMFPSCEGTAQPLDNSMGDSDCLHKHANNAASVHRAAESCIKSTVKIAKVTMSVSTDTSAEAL
Sequence of UniProt P9WIA1 (whole entry, looked up): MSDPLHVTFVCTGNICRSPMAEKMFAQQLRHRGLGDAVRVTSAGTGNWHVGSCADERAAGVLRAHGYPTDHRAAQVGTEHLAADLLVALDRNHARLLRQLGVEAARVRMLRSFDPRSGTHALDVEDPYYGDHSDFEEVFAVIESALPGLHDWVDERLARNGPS
Sequence of UniProt P25084 (whole entry, looked up): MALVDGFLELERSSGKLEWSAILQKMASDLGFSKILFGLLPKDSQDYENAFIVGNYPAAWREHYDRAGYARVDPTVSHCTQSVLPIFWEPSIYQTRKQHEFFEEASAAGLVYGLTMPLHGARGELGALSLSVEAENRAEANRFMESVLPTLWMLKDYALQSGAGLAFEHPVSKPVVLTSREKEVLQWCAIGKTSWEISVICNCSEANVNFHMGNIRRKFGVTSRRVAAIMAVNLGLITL
Sequence of UniProt P18508 (whole entry, looked up): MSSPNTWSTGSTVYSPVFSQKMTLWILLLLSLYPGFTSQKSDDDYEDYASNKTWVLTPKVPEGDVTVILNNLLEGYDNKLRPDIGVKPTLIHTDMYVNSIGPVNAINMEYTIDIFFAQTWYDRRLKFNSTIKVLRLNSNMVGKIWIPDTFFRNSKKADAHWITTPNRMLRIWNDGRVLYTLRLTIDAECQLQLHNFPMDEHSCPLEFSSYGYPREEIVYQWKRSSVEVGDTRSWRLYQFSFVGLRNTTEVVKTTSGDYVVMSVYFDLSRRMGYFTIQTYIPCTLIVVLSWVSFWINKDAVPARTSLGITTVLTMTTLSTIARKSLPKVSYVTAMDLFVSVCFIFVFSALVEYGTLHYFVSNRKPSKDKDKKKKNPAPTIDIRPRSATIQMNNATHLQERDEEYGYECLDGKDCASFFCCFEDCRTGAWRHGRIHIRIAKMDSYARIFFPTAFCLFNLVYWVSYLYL
Sequence of UniProt P32300 (whole entry, looked up): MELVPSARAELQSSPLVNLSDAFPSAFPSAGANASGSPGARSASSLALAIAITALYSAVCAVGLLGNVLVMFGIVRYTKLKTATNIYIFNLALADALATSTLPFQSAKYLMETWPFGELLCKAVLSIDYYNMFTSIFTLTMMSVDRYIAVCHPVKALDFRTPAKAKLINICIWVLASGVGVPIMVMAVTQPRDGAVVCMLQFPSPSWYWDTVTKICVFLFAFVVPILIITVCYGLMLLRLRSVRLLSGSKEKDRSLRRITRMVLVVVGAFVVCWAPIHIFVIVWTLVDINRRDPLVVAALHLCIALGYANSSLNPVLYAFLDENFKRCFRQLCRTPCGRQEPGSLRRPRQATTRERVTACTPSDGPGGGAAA
Sequence of UniProt P19969 (whole entry, looked up): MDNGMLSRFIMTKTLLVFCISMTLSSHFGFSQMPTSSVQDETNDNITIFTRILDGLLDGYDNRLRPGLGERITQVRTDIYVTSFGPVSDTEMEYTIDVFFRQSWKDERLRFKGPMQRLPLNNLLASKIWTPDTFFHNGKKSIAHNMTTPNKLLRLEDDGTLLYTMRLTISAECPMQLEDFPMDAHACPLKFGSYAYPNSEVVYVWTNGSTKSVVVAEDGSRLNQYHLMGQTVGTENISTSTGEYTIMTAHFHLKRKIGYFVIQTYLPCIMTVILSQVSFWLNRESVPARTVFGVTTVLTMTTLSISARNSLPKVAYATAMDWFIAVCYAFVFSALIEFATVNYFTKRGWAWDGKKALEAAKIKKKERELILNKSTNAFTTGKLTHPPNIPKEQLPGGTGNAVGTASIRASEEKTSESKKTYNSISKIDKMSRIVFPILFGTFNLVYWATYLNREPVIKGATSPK

With `O=C(O)CCc1c[nH]c2ccccc12` the ligand efficiency was 0.29 (coaD; competition ITC).
`Cc1nc(=O)c2cc(CN(C)c3ccc(C(=O)NCCc4nn[nH]n4)s3)ccc2[nH]1` gave a Hill slope of 1.2 (4'-phosphopantetheinyl transferase PptT; enzyme activity, inhibitor, fluorescence polarization).
`NCCc1cccc(C(F)(F)F)c1` — result for “STD NMR signal”: 0% (Amyloid-beta precursor protein, amyloid-beta 1-40 oligomers (APP, Homo sapiens, UniProt P05067); binding, STD NMR; highest STD).
With `COC(=O)CC[C@H](NC(=O)c1ccc(N(C)Cc2ccc3[nH]c(C)nc(=O)c3c2)s1)C(=O)OC` the Hill slope was 0.7 (4'-phosphopantetheinyl transferase PptT; enzyme activity, inhibitor, fluorescence polarization).
`N[C@@H](CCC(=O)N[C@@H](CS[Se]Cc1ccc(C(=O)Nc2cc(C(F)(F)F)c(Br)c(C(F)(F)F)c2)cc1)C(=O)NCC(=O)O)C(=O)O`: “modified protein mass” 18.7 kDa (Low molecular weight protein-tyrosine phosphatase A (Mycobacterium tuberculosis, UniProt P9WIA1)).
The inhibition of `c1csc(CNC23CC4CC(CC(C4)C2)C3)c1` is reported as 78% (Matrix protein 2; ion current, two-electrode voltage clamp; 100 µM).
`CCCCCc1cc(O)c2c(c1)OC(C)(C)c1cc(O)c(C)cc1-2`: “inhibition potency ratio” 3 (intestinal alpha-glucosidase, rat; reference: compound over cannabitriol).
For `Cc1nc(=O)c2cc(CN(C)c3ccc(C(=O)N[C@H](CCC(=O)O)c4nnn[nH]4)s3)ccc2[nH]1`, the Hill slope was 2.4 (4'-phosphopantetheinyl transferase PptT; enzyme activity, inhibitor, fluorescence polarization).
`CCOC(=O)C1C(OC(c2ccc(Cl)cc2)c2ccc(Cl)cc2)CC2CCC1N2C` (single isomer, unassigned): Ki “inactive” (rat 5-HT1 receptors; binding, radioligand displacement; inactive if below 75% at 10000 nM, together with: [3H]5-HT).
With `N=C(N)NCCCCCCN1CCC23c4c5ccc(O)c4OC2c2nc4ccccc4cc2CC3(O)C1C5` (stereo not shown) the Emax was 70% (Delta-type opioid receptor, with Gi1 (Oprd1, Mus musculus, UniProt P32300); receptor activation, agonist; concentration not given).
The activation of `CCCCc1cn(-c2cccc(C(=O)N[C@H]3CCOC3=O)c2)nn1` is reported as 0% (Transcriptional activator protein LasR (lasR, Pseudomonas aeruginosa, UniProt P25084); reporter gene, agonist; Escherichia coli, DH5α pJN105L/pSC11; 100 µM; reference: OdDHL at same concentration).
`CCCCCn1cc(C(=O)c2ccc3ccccc3c2)c2ccccc21` has an Emax of 91.8% (Cannabinoid receptor 2 (CNR2, Homo sapiens, UniProt P34972); β-arrestin recruitment, agonist, BRET; HEK-293T).
The Hill slope of `CCOC(=O)CC[C@@H](NC(=O)c1ccc(N(C)Cc2ccc3[nH]c(C)nc(=O)c3c2)s1)C(=O)OCC` is reported as 0.8 (4'-phosphopantetheinyl transferase PptT; enzyme activity, inhibitor, fluorescence polarization).
`COc1ccc(CNC23CC4C5CC6CC4C(C2)C(C6)C5C3)c(O)c1` has a kon of 378.2 ± 1.1 M⁻¹ s⁻¹ (Matrix protein 2; binding).
`Cc1nc(=O)c2cc(CN(C)c3ccc(C(=O)N[C@H](CCC(=O)O)C(=O)O)s3)ccc2[nH]1` gave a Hill slope of 2 (4'-phosphopantetheinyl transferase PptT; enzyme activity, inhibitor, fluorescence polarization).
With `O=C1CC(=O)N(c2ccccc2)c2cc(Cl)ccc2N1` the Emax was 148 ± 15% (Gabrg2/Gabra5, with β2 subunit (Rattus norvegicus, UniProt P18508+P19969); GABA current potentiation, positive allosteric modulator, whole-cell patch clamp; HEK293; together with: GABA at EC10).
For `Cc1cn(CCC(=O)O)c2ccccc12`, the ligand efficiency was 0.28 (coaD; competition ITC).
With `COc1ccc(CNC(C)(C)C23CC4CC(CC(C4)C2)C3)c(O)c1` the kon was 332.6 ± 1.7 M⁻¹ s⁻¹ (Matrix protein 2; binding).
The Emax of `CCCCCn1cc(C(=O)c2cccc3c2CC(C)(C)C3)c2ccccc21` is reported as 66.8 ± 6.9% (Cannabinoid receptor 2 (CNR2, Homo sapiens, UniProt P34972, I110L); Gαi1 engagement, agonist, BRET; reference: reference agonist at wild-type CB2).
With `Cc1nc(=O)c2cc(CN(C)c3ccc(C(=O)Nc4n[nH]c5ccccc45)s3)ccc2[nH]1` the Hill slope was 1 (4'-phosphopantetheinyl transferase PptT; enzyme activity, inhibitor, fluorescence polarization).
For `O=S(=O)(O)CCOCC1CSSCC(COCCS(=O)(=O)O)SS1` (stereo not shown), the kon was 5300 ± 510 M⁻¹ s⁻¹ (Response regulator PhoP (Mycobacterium tuberculosis, UniProt P71814); binding, LSPR).
With `Cc1nc(=O)c2cc(CN(C)c3cccc(C(=O)Nc4n[nH]c5ccccc45)c3)ccc2[nH]1` the Hill slope was 1.1 (4'-phosphopantetheinyl transferase PptT; enzyme activity, inhibitor, fluorescence polarization).
With `CCCCCn1cc(C(=O)c2ccc3c(c2)CC(C)(C)C3)c2ccccc21` the Emax was 55.1 ± 5.4% (Cannabinoid receptor 1 (CNR1, Homo sapiens, UniProt P21554); Gαi1 engagement, agonist, BRET; HEK293T; reference: reference agonist).
The Hill slope of `Cc1nc(=O)c2cc(CN(C)c3ccc(C(=O)NCc4cccc(C(=O)O)c4)s3)ccc2[nH]1` is reported as 1.1 (4'-phosphopantetheinyl transferase PptT; enzyme activity, inhibitor, fluorescence polarization).
`CCCCCn1cc(C(=O)c2cccc3ccccc23)c2ccccc21` has an Emax of 75.4 ± 4.5% (Cannabinoid receptor 1 (CNR1, Homo sapiens, UniProt P21554, I267L); Gαi1 engagement, agonist, BRET; reference: reference agonist at wild-type CB1).
